Published values of several laboratories.
Numbered parts are unrelated; each lists some results of a single study. Several values in a cell are separate wells, animals, samples, runs or records.
UniProt O14965, sequence (whole entry, looked up): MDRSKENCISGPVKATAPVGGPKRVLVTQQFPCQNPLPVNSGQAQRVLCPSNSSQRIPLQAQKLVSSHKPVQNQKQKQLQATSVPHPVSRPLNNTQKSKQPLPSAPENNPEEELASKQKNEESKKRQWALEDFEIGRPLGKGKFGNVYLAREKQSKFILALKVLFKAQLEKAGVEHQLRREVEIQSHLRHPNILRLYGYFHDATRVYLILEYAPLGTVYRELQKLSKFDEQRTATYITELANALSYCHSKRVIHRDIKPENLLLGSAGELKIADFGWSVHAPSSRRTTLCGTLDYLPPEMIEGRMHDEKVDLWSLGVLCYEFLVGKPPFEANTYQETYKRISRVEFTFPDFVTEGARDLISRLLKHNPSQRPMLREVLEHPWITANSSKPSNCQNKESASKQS
UniProt Q8IVW4, sequence (whole entry, looked up): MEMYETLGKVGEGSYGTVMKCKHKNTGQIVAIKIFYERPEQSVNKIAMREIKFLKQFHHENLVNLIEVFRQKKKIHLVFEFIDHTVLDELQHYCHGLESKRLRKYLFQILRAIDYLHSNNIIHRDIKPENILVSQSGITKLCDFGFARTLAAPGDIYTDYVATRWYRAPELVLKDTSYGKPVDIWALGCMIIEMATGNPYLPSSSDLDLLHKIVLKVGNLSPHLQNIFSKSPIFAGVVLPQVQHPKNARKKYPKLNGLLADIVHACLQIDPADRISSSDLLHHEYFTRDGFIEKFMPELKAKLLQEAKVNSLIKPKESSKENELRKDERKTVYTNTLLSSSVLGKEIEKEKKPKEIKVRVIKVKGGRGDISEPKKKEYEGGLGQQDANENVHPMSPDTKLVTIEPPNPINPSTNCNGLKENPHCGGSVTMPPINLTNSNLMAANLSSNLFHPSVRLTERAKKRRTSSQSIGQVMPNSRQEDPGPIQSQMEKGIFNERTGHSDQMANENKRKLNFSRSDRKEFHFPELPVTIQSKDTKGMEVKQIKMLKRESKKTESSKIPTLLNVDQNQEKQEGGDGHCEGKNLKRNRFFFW
UniProt Q9Y6M4, sequence (whole entry, looked up): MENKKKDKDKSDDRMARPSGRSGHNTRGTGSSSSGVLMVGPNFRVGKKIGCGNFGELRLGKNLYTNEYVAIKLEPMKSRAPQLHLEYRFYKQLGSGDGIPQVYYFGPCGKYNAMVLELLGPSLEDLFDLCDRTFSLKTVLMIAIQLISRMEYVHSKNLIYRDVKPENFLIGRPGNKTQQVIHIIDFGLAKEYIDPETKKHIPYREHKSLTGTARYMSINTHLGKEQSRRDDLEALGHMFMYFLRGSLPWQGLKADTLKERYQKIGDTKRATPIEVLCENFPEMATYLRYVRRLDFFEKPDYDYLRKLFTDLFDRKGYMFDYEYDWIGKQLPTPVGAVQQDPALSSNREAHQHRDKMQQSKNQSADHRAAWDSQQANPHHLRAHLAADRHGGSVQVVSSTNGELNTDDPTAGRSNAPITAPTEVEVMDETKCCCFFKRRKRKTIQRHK
UniProt Q00537, sequence (whole entry, looked up): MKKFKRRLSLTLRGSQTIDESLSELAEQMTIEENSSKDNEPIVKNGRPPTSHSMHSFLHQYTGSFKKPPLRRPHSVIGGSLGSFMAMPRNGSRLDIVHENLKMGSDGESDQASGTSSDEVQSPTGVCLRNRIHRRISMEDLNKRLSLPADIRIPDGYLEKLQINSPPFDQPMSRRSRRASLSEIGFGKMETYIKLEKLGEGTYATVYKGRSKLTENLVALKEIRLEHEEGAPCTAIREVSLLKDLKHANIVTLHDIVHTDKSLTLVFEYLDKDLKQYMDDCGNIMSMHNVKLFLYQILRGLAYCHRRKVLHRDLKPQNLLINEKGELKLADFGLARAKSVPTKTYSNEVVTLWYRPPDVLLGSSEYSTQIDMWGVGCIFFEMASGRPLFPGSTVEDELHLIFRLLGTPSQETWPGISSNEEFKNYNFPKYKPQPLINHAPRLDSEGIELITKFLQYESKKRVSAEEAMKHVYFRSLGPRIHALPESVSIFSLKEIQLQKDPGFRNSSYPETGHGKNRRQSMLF

Series 1
SMILES: CC(C)(C)NC(=O)c1ccc(OC/C(=C/F)CN)cc1
Target: Myeloperoxidase (MPO, Homo sapiens, UniProt P05164)
UniProt P05164, sequence (whole entry, looked up): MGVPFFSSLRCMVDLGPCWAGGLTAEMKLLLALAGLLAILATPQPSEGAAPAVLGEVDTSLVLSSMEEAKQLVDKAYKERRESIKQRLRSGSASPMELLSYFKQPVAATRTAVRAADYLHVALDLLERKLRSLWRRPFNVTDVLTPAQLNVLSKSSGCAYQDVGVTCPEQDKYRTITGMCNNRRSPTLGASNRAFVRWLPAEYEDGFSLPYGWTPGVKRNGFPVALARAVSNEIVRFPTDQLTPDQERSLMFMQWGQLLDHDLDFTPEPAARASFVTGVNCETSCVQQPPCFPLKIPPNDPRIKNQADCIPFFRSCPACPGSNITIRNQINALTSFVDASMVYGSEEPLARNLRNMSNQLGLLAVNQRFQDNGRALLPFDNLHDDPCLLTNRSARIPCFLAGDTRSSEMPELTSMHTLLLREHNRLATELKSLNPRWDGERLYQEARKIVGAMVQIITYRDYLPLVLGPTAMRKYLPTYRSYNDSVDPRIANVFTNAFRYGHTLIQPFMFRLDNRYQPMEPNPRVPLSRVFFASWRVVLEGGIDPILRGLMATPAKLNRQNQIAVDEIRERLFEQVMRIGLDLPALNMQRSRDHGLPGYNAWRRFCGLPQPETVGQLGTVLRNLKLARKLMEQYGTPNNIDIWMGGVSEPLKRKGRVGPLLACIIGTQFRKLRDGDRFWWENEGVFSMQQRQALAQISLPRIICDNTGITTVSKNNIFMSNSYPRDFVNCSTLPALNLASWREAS
Read-out: enzyme activity
Action: inhibitor
Technique: fluorescence
Endpoint: inhibition
0.3704 µM: -6.83% and -9.19% and -12.4%
10 µM: -14.3% and -16.2% and -12.7%
4.6 nM: -16.4% and -9.45% and -10.4%

Series 2
SMILES: Cc1ccc(O)c(C)c1-c1cnc2[nH]c(-c3cnc(N4CCC5(CC4)CC(N4CCN(c6ccc(NC7CCC(=O)NC7=O)cc6F)CC4)CO5)nc3)cc2c1C#N (stereo not shown)
Endpoint: inhibition
PKMYT1: Membrane-associated tyrosine- and threonine-specific cdc2-inhibitory kinase (PKMYT1, Homo sapiens, UniProt Q99640)
UniProt Q99640, sequence (whole entry, looked up): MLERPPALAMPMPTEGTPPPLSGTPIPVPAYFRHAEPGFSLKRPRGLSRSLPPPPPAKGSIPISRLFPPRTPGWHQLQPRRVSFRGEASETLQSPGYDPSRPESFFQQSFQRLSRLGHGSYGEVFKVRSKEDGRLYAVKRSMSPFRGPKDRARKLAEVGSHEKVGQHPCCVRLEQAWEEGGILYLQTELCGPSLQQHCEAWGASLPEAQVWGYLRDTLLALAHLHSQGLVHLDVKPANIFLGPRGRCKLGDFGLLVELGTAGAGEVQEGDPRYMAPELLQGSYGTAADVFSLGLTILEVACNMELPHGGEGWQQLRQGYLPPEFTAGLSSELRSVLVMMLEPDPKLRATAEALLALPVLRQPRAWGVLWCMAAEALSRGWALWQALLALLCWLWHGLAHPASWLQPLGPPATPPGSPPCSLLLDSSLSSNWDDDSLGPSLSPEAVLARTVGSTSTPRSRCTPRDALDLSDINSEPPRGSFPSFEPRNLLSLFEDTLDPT
MDA-MB-157; item: CDK1 phospho-Thr14; 111.11 nM: 25%
HCC1599; item: CDK1 phospho-Thr14; 1000 nM: 80.2%
HuCCT-1; item: CDK1 phospho-Thr14; 0.15 nM: 7.6%
MDA-MB-157; item: CDK1 phospho-Thr14; 0.46 nM: -24.6%
MDA-MB-157; item: CDK1 phospho-Thr14; 0.05 nM: -41.1%
PKMYT1; 0.00412 µM: 43.1%
HuCCT-1; item: CDK1 phospho-Thr14; 333.33 nM: 84.9%
PKMYT1; cell-free assay, inhibitor, TR-FRET; 1.37 nM: 40.3%
PKMYT1; cell-free assay, inhibitor, TR-FRET; 4.12 nM: 44.3%

Series 3
SMILES: CC[C@@]1(c2ccccc2)C2=C(CC(C)(C)CC2=O)Nc2n[nH]cc21
Tested at: 1 µM
Endpoint: remaining binding
FGR (Homo sapiens, UniProt P09769); binding, competition with immobilised ligand: 100%
CSNK1G3 (Homo sapiens, UniProt Q9Y6M4); binding, competition with immobilised ligand: 100%
CDK8 (Homo sapiens, UniProt P49336); binding, competition with immobilised ligand: 100%
IKBKB (Homo sapiens, UniProt O14920); kinase binding, KINOMEscan; relative to: DMSO control: 100%
CDKL3 (Homo sapiens, UniProt Q8IVW4); kinase binding, KINOMEscan; relative to: DMSO control: 100%
FES (Homo sapiens, UniProt P07332); binding, competition with immobilised ligand: 100%
MAP3K7 (Homo sapiens, UniProt O43318); binding, competition with immobilised ligand: 81%
KIT (Homo sapiens, UniProt P10721, A829P); kinase binding, KINOMEscan; relative to: DMSO control: 100%
FGFR2 (Homo sapiens, UniProt P21802); kinase binding, KINOMEscan; relative to: DMSO control: 100%
Aurora kinase A (AURKA, Homo sapiens, UniProt O14965); kinase binding, KINOMEscan; relative to: DMSO control: 100%
NEK1 (Homo sapiens, UniProt Q96PY6); kinase binding, KINOMEscan; relative to: DMSO control: 85%
STK26 (Homo sapiens, UniProt Q9P289); kinase binding, KINOMEscan; relative to: DMSO control: 100%
FLT3 ITD, human; KINOMEscan: 100%
EGFR (Homo sapiens, UniProt P00533, del747-752/P753S); binding, competition with immobilised ligand: 79%
CDK17 (Homo sapiens, UniProt Q00537); kinase binding, KINOMEscan; relative to: DMSO control: 86%

Series 4
SMILES: C[C@@H]1CN(c2ccc(-c3cc(C(=O)NCCOCCOCCOCCOCCNC(=O)Cn4cc(-c5[nH]cc(C(=O)N[C@@H](CC(N)=O)c6ccc(F)c(Cl)c6)c5-c5ccc(Cl)cc5F)cn4)ccc3F)cc2NC(=O)c2c[nH]c(=O)cc2C(F)(F)F)C[C@H](C)N1C
Read-out: thermal unfolding
Technique: differential scanning fluorimetry
Tested at: 5.5 µM
Reading: higher = more unfolded
Endpoint: SYPRO Orange fluorescence
WDR5: WD repeat-containing protein 5 (WDR5, Homo sapiens, UniProt P61964)
DCAF1: DDB1- and CUL4-associated factor 1 (DCAF1, Homo sapiens, UniProt Q9Y4B6)
UniProt Q9Y4B6, sequence (whole entry, looked up): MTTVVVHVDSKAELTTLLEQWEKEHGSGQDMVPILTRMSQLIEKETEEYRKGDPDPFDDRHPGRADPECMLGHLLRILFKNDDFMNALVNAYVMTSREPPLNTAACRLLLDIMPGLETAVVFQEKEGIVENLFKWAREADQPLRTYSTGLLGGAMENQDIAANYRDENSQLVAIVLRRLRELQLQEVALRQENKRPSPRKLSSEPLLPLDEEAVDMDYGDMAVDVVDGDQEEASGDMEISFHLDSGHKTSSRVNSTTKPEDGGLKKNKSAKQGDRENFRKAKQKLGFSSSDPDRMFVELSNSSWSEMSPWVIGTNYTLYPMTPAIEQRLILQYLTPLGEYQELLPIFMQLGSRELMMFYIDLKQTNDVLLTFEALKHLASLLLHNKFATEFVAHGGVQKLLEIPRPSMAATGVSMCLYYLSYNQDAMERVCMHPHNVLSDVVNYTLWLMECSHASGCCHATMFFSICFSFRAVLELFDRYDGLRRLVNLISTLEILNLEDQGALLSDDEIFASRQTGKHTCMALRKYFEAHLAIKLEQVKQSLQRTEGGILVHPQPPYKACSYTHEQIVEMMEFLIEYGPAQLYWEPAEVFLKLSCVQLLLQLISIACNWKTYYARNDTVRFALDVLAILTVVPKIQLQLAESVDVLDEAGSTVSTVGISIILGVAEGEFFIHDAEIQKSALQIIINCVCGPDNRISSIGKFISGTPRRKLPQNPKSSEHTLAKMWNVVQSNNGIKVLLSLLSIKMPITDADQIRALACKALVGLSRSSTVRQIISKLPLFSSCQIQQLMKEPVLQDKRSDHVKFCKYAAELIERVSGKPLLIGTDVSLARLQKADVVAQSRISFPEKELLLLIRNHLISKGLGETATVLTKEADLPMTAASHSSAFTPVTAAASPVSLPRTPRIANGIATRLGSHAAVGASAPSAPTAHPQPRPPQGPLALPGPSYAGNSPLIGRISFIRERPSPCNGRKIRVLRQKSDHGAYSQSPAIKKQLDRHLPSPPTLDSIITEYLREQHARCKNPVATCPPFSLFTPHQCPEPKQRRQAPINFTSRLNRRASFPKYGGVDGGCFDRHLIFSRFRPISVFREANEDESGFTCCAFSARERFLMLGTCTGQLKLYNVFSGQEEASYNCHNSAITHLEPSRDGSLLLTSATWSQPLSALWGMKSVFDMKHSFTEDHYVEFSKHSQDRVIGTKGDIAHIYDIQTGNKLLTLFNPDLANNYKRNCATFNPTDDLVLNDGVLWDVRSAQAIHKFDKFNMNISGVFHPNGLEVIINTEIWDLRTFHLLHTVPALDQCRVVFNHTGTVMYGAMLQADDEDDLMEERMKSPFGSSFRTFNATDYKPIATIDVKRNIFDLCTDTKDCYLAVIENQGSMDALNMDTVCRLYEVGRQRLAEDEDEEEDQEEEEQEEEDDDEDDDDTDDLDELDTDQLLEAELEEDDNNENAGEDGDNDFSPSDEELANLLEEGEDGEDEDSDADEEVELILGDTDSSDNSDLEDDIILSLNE
WDR5; 30.8 °C: 15000 a.u.
DCAF1; 64.41 °C: 55000 a.u.
WDR5; 90.81 °C: 42600 a.u.
DCAF1; 85.61 °C: 39100 a.u.
DCAF1; 62.01 °C: 47700 a.u.
DCAF1; 63.81 °C: 53800 a.u.
DCAF1; 30 °C: 8270 a.u.

For quick reference, copied from above (series 3):
FLT3 ITD, human; KINOMEscan: 100%
FGFR2 (Homo sapiens, UniProt P21802); kinase binding, KINOMEscan; relative to: DMSO control: 100%
